Experimental data of several laboratories.
Each line is one published result; not all experiments were run side by side. In brackets after ≈: the same amount, converted by molar mass.

For `COc1ccc(N2C(=O)C=CC2=O)cc1`, the mRNA level was 0.29 fold (Candida albicans; qRT-PCR, refers to: EFG1; 1 µg/mL, 12 h; relative to: untreated).
`N=C(N)NCCC[C@H](NC(=O)[C@H](Cc1c[nH]c2ccccc12)NC(=O)[C@H](CCCNC(=N)N)NC(=O)[C@H](CCCNC(=N)N)NC(=O)[C@@H]1CCCN1C(=O)[C@H](CCCCN)NC(=O)[C@@H](N)CCCNC(=N)N)C(=O)N[C@@H](Cc1c[nH]c2ccccc12)C(=O)N[C@@H](Cc1c[nH]c2ccccc12)C(=O)N1CCC[C@H]1C(=O)N[C@@H](CCCCN)C(=O)N[C@@H](CCCNC(=N)N)C(=O)N1CCC[C@H]1C(=O)O` — result for “reduction of organ bacterial load”: 0.44 to 1.15 log CFU/g (Staphylococcus aureus; 09057, BALB/c mice, sepsis, liver, kidney, spleen, lungs; intraperitoneal, 20 mg/kg, 12 h, dosed 1 h post-infection; relative to: saline).
`CC[C@@H]1NC(=O)[C@H]([C@H](O)[C@H](C)Cc2nc3ccc(C(=O)OC)cc3[nH]2)N(C)C(=O)[C@H](C(C)C)N(C)C(=O)[C@H](CC(C)C)N(C)C(=O)[C@H](CC(C)C)N(C)C(=O)[C@@H](C)NC(=O)[C@H](C)NC(=O)[C@H](CC(C)C)N(C)C(=O)[C@H](C(C)C)NC(=O)[C@H](CC(C)C)N(C)C(=O)CN(C)C1=O`: “concentration abolishing N protein” greater than 5 µM (HCoV-NL63; Western blot; Caco-2).
With `CC[C@H](C)[C@H](NC(=O)[C@H](CCCCN)NC(=O)[C@H](CCCCN)NC(=O)[C@H](CC(C)C)NC(=O)[C@H](CCCCN)NC(=O)[C@H](CCC(=O)O)NC(=O)[C@H](CCCCN)NC(=O)[C@@H](NC(=O)[C@H](CCCCN)NC(=O)[C@H](CC(N)=O)NC(=O)[C@H](CCCNC(=N)N)NC(=O)[C@H](Cc1ccccc1)NC(=O)[C@H](CCCCN)NC(=O)[C@H](CCCNC(=N)N)NC(=O)[C@H](CC(C)C)NC(=O)[C@H](CCCNC(=N)N)NC(=O)[C@H](CCCCN)NC(=O)[C@H](CCCNC(=N)N)NC(=O)[C@H](CC(C)C)NC(=O)[C@@H](N)CCCNC(=N)N)[C@@H](C)CC)C(=O)NCC(=O)N[C@@H](CCC(N)=O)C(=O)N[C@@H](CCCCN)C(=O)N[C@H](C(=O)N[C@@H](CCC(N)=O)C(=O)NCC(=O)N[C@@H](Cc1ccccc1)C(=O)N[C@H](C(=O)N1CCC[C@H]1C(=O)N[C@@H](CCCCN)C(=O)N[C@@H](CC(C)C)C(=O)N[C@@H](CCC(N)=O)C(=O)N1CCC[C@H]1C(=O)N[C@@H](CO)C(=O)N[C@@H](CCCCN)C(=O)N[C@@H](CCC(N)=O)C(=O)N[C@@H](CO)C(=O)O)C(C)C)[C@@H](C)CC` the lethal concentration was 2.17 µM (Salmonella; inhibition zone; DZ.3G; LB agar, overnight).
With `CC[C@H](C)[C@H](NC(=O)[C@H](Cc1ccccc1)NC(=O)[C@H](CC(C)C)NC(=O)[C@]1(C)CCCC=CCCC[C@](C)(NC(=O)[C@H](CC(C)C)NC(=O)[C@H](CCCCN)NC(=O)[C@H](CCC(N)=O)NC(=O)[C@H](CO)NC(=O)CNC(=O)CCNC(=O)c2ccc3c(c2)C(=O)OC32c3ccc(O)cc3Oc3cc(O)ccc32)C(=O)N[C@@H](CCC(N)=O)C(=O)N[C@@H](C)C(=O)N[C@@H](C)C(=O)N1)C(=O)NCC(=O)N[C@@H](CO)C(=O)N[C@@H](CCCCN)C(=O)N[C@@H](CC(C)C)C(=O)N[C@H](C(=O)N[C@H](C(N)=O)[C@@H](C)O)[C@@H](C)O` the parasitemia reduction was roughly 50% (Plasmodium falciparum; CS2; 15 µM, 24 h, late-stage iRBC).
Under “inhibition zone diameter”, `CN[C@@H]1[C@H](O)[C@H](NC)[C@H]2O[C@]3(O)[C@H](O[C@@H]2[C@H]1O)O[C@H](C)C[C@]3(O)CNCc1ccc(F)cc1` is recorded as 0 mm (Neisseria gonorrhoeae; ATCC 49226; 40 µg per disc).
For `CC[C@H](C)[C@H](NC(=O)[C@H](Cc1c[nH]cn1)NC(=O)[C@H](CCCCNC(=O)[C@@H](NC(=O)[C@H](CCCCN)NC(=O)CSC[C@H](NC(=O)[C@H](Cc1ccccc1)NC(=O)[C@H](CCCCNC(=O)[C@H](CC(C)C)NC(=O)[C@@H]1CCCN1C(=O)[C@H](CCCCN)NC(=O)c1ccc(O[C@@H]2O[C@H](CO)[C@H](O)[C@H](O)[C@H]2O)cc1)NC(=O)[C@H](CC(C)C)NC(=O)[C@@H]1CCCN1C(=O)[C@H](CCCCN)NC(=O)c1ccc(O[C@@H]2O[C@H](CO)[C@H](O)[C@H](O)[C@H]2O)cc1)C(N)=O)[C@@H](C)CC)NC(=O)[C@@H](NC(=O)[C@H](CCCCN)NC(=O)CSC[C@H](NC(=O)[C@H](Cc1ccccc1)NC(=O)[C@H](CCCCNC(=O)[C@H](CC(C)C)NC(=O)[C@@H]1CCCN1C(=O)[C@H](CCCCN)NC(=O)c1ccc(O[C@@H]2O[C@H](CO)[C@H](O)[C@H](O)[C@H]2O)cc1)NC(=O)[C@H](CC(C)C)NC(=O)[C@@H]1CCCN1C(=O)[C@H](CCCCN)NC(=O)c1ccc(O[C@@H]2O[C@H](CO)[C@H](O)[C@H](O)[C@H]2O)cc1)C(N)=O)[C@@H](C)CC)C(N)=O`, the MBIC was 30 µM (Pseudomonas aeruginosa; biofilm formation; PAO1; 24 h).
`CC[C@H](C)[C@H](NC(=O)[C@H](CCCCN)NC(=O)[C@H](CCCCN)NC(=O)[C@H](CC(C)C)NC(=O)[C@H](CCCCN)NC(=O)[C@H](CCC(=O)O)NC(=O)[C@H](CCCCN)NC(=O)[C@@H](NC(=O)[C@H](CCCCN)NC(=O)[C@H](CC(N)=O)NC(=O)[C@H](CCCNC(=N)N)NC(=O)[C@H](Cc1ccccc1)NC(=O)[C@H](CCCCN)NC(=O)[C@H](CCCNC(=N)N)NC(=O)[C@H](CC(C)C)NC(=O)[C@H](CCCNC(=N)N)NC(=O)[C@H](CCCCN)NC(=O)[C@H](CCCNC(=N)N)NC(=O)[C@H](CC(C)C)NC(=O)CN)[C@@H](C)CC)C(=O)NCC(=O)N[C@@H](CCC(N)=O)C(=O)N[C@@H](CCCCN)C(=O)N[C@H](C(=O)N[C@@H](CCC(N)=O)C(=O)NCC(=O)N[C@@H](Cc1ccccc1)C(=O)N[C@H](C(=O)N1CCC[C@H]1C(=O)N[C@@H](CCCCN)C(=O)N[C@@H](CC(C)C)C(=O)N[C@@H](C)C(=O)N1CCC[C@H]1C(=O)N[C@@H](CCCNC(=N)N)C(=O)N[C@H](C(=O)N[C@@H](CC(=O)O)C(=O)N[C@@H](Cc1ccc(O)cc1)C(=O)O)[C@@H](C)O)C(C)C)[C@@H](C)CC` gave a lethal concentration of 1.4 µM (Bacillus megaterium; inhibition zone; CGMCC 1.046).
For `C=CCCCCOP(=O)(O)Oc1c2c(c(OP(=O)(O)OCCCCC=C)c3c1C1CC3c3cc4c(cc31)C1CC4c3ccccc31)C1CC2c2cc3c(cc21)C1CC3c2ccccc21`, the IC50 was 7.4 µM (measles virus; viral infection, flow cytometry; A549, vaccine strain GFP; 2 days, virus pre-incubated 30 min 37 °C).
`CNC(=O)CNc1cnc2ccc(-c3ccc(OC)c(OC)c3)cc2n1` — result for antiparasitic activity: “inactive” (Cryptosporidium parvum; cytopathic effect; HCT-8; concentration not given).
With `COc1ccc(C2=[N+]([O-])c3ccccc3N3CCN=C23)cc1` the MIC was no more than 0.06 µg/mL (Fusobacterium nucleatum; microbial growth; ATCC25586).
`CN(C)CCNC(=O)/C=C/[C@H](Cc1ccccc1)Nc1ccnc2cc(Cl)ccc12` gave a survival rate of 100% (Plasmodium berghei; NAT atovaquone-resistant, ICR mice; intravenous, 20 mg/kg once daily, 15 days post-infection).
For `CC[C@H](C)[C@H](NC(=O)[C@H](CCCCN)NC(=O)[C@H](CCCCN)NC(=O)[C@H](CC(C)C)NC(=O)[C@H](CCCCN)NC(=O)[C@H](CCC(=O)O)NC(=O)[C@H](CCCCN)NC(=O)[C@@H](NC(=O)[C@H](CCCCN)NC(=O)[C@H](CC(N)=O)NC(=O)[C@H](CCCNC(=N)N)NC(=O)[C@H](Cc1ccccc1)NC(=O)[C@H](CCCCN)NC(=O)[C@H](CCCNC(=N)N)NC(=O)[C@H](CC(C)C)NC(=O)[C@H](CCCNC(=N)N)NC(=O)[C@H](CCCCN)NC(=O)[C@H](CCCNC(=N)N)NC(=O)[C@@H](N)CC(C)C)[C@@H](C)CC)C(=O)NCC(=O)N[C@@H](CCC(N)=O)C(=O)N[C@@H](CCCCN)C(=O)N[C@H](C(=O)N[C@@H](CCC(N)=O)C(=O)NCC(=O)N[C@@H](Cc1ccccc1)C(=O)N[C@H](C(=O)N1CCC[C@H]1C(=O)N[C@@H](CCCCN)C(=O)N[C@@H](CC(C)C)C(=O)O)C(C)C)[C@@H](C)CC`, the lethal concentration was 1.45 µM (Bacillus subtilis; inhibition zone; CGMCC 1.243).
`CC[C@H](C)[C@H](NC(=O)[C@H](CO)NC(=O)[C@H](CO)NC(=O)[C@H](Cc1ccccc1)NC(=O)CN)C(=O)N[C@@H](Cc1ccccc1)C(=O)N[C@@H](CCCNC(=N)N)C(N)=O` has an MBC of greater than 128 µM (Escherichia coli; ATCC 8739; together with: 0.5 mM KCl).
For `C[C@@](O)(C(F)F)[C@H](NC(=O)c1ccc(C#CC#CC2CC2)cc1)C(=O)NO`, the MIC90 was 0.125 µg/mL (≈ 0.332 µM) (Citrobacter koseri; agar dilution; clinical isolates).
`CC[C@@H](C)[C@@H](NC(=O)[C@@H](C)NC(=O)[C@@H](CCCCN)NC(=O)[C@@H](CC(C)C)NC(=O)[C@@H](C)NC(=O)[C@H](NC(=O)[C@@H](Cc1c[nH]cn1)NC(=O)[C@@H](CC(C)C)NC(=O)[C@H](NC(=O)[C@H](NC(=O)[C@@H](CCCCN)NC(=O)[C@@H](CCCCN)NC(=O)[C@@H](C)NC(=O)[C@@H](CO)NC(=O)[C@@H](CCCCN)NC(=O)[C@@H](Cc1ccccc1)NC(=O)[C@H](NC(=O)[C@@H](CCCCN)NC(=O)[C@@H](CC(C)C)NC(=O)[C@@H](Cc1ccccc1)NC(=O)[C@@H](CO)NC(=O)[C@@H](CCCCN)NC(=O)[C@@H](Cc1c[nH]c2ccccc12)NC(=O)[C@@H](CCCCN)NC(C)=O)[C@H](C)O)[C@H](C)O)C(C)C)[C@H](C)O)C(=O)N[C@H](CO)C(=O)N[C@H](CO)C(N)=O` has an MIC50 of 18.8 µg/mL (≈ 6.29 µM) (Rhizopus oryzae; AZN 8892; 48 h, 30 °C).
The inhibition of `COc1ccc(-c2nc(C(=O)NCc3ccc(C)cc3)c(O)c3ncccc23)c(OC)c1` is reported as 100% (Human betaherpesvirus 5; viral replication, inhibitor; HFF; 10 µM).
The survival prolongation of `OC(CN1CCC2(CC1)CC(O)c1ccc3ccccc3c1O2)c1ccc(F)c(F)c1` (stereo not shown) is reported as greater than 1.7 fold (Plasmodium berghei; ANKA, BALB/c mice; oral, dose not given; relative to: control).
`CC[C@H](C)[C@H](NC(=O)[C@H](CCCCN)NC(=O)[C@H](CCCCN)NC(=O)[C@H](CC(C)C)NC(=O)[C@H](CCCCN)NC(=O)[C@H](CCC(=O)O)NC(=O)[C@H](CCCCN)NC(=O)[C@@H](NC(=O)[C@H](CCCCN)NC(=O)[C@H](CC(N)=O)NC(=O)[C@H](CCCNC(=N)N)NC(=O)[C@H](Cc1ccccc1)NC(=O)[C@H](CCCCN)NC(=O)[C@H](CCCNC(=N)N)NC(=O)[C@H](CC(C)C)NC(=O)[C@H](CCCNC(=N)N)NC(=O)[C@H](CCCCN)NC(=O)[C@H](CCCNC(=N)N)NC(=O)[C@H](CC(C)C)NC(=O)[C@@H](N)CC(C)C)[C@@H](C)CC)C(=O)NCC(=O)N[C@@H](CCC(N)=O)C(=O)N[C@@H](CCCCN)C(=O)N[C@H](C(=O)N[C@@H](CCC(N)=O)C(=O)NCC(=O)N[C@@H](Cc1ccccc1)C(=O)N[C@H](C(=O)N1CCC[C@H]1C(=O)N[C@@H](CCCCN)C(=O)N[C@@H](CC(C)C)C(=O)N[C@H](C(=O)N1CCC[C@H]1C(=O)N[C@@H](CCCNC(=N)N)C(=O)N[C@H](C(=O)N[C@@H](CCC(=O)O)C(=O)N[C@@H](CO)C(=O)O)[C@@H](C)O)C(C)C)C(C)C)[C@@H](C)CC` has a lethal concentration of 1.64 µM (Bacillus megaterium; inhibition zone; CGMCC 1.046).
